# Measurements of several laboratories.
# Values joined by “and” are separate records of one study, mostly repeats; a detail may differ. Numbers after ± are the reported error.
Compound,assay,system,conditions,scale,measurement,value
CNC(=O)[C@H](CCC(=O)NCCCC[C@@H]1NC(=O)[C@@H](Cc2ccccc2)NC(=O)[C@H](CC(=O)O)NC(=O)CNC(=O)[C@H](CCCNC(=N)N)NC1=O)NC(=O)CN1CCN(CC(=O)O)CCN(CC(=O)O)CCN(CC(=O)O)CC1 [gallium-68 labelled],,"female nude BALB/c mouse, SK-RC-52 xenograft, tumour","intravenous, 2 h",,tumour uptake,3.3 ± 0.3 %ID/g
CCCC[C@H](NC(=O)CN1CCC(NC(=O)CN2CCC(NC(=O)CN3CCN(CC(=O)O)CCN(CC(=O)O)CCN(CC(=O)O)CC3)CC2)CC1)C(=O)N[C@H]1CC(=O)NCCCC[C@@H](C(N)=O)NC(=O)[C@H](Cc2c[nH]c3ccccc23)NC(=O)[C@H](CCCNC(=N)N)NC(=O)[C@@H](Cc2ccccc2)NC(=O)[C@H](Cc2c[nH]cn2)NC1=O [gallium-68 labelled],biodistribution,C57BL/6J mouse male tumour-bearing,"1 h post injection, unblocked",relative to: tumour over kidney,tumour to kidney ratio,1.1 ± 0.3
CC(=O)N[C@@H](Cc1ccc(O)cc1)C(=O)N[C@@H](CC(C)C)C(=O)N[C@@H](CS)C(=O)N[C@@H](CO)C(=O)N[C@@H](CO)C(=O)N[C@@H](CC(N)=O)C(=O)N[C@@H](CC(N)=O)C(=O)N[C@@]1(C)CCCC=CCCC[C@@](C)(C(=O)N[C@@H](CCCCN)C(=O)N[C@@H](Cc2ccccc2)C(=O)N[C@@H](CCCNC(=N)N)C(=O)N[C@@H](CCCNC(=N)N)C(=O)NCC(=O)NCC(=O)N[C@@H](CO)C(=O)NCC(=O)NCC(=O)N[C@H](C(=O)N[C@@H](CO)C(=O)N[C@@H](Cc2ccccc2)C(=O)N[C@@]2(C)CCCC=CCCC[C@@](C)(C(=O)N[C@@H](Cc3c[nH]c4ccccc34)C(=O)N[C@@H](CC(C)C)C(=O)N[C@@H](Cc3c[nH]c4ccccc34)C(=O)N3CCC[C@H]3C(N)=O)NC(=O)[C@H](Cc3c[nH]c4ccccc34)NC(=O)[C@H](Cc3ccccc3)NC(=O)[C@H](CCC(N)=O)NC2=O)[C@@H](C)O)NC(=O)[C@H](CCCNC(=N)N)NC(=O)[C@H](CCC(=O)O)NC(=O)[C@H](CCCNC(=N)N)NC1=O,,"mouse, CWR22Rv1 xenograft, tumour",,,tumour residence time,> 48 h
CSCC[C@H](NC(=O)CNC(=O)[C@H](CCCCN)NC(=O)[C@H](CC(C)C)NC(=O)[C@@H]1CCCN1C(=O)[C@H](CO)NC(=O)[C@H](Cc1c[nH]cn1)NC(=O)[C@H](Cc1c[nH]c2ccccc12)NC(=O)[C@H](CCCNC(=N)N)NC(=O)[C@H](CC(C)C)NC(=O)[C@H](CCCNC(=N)N)NC(=O)[C@H](Cc1c[nH]c2ccccc12)NC(=O)[C@H](CS)NC(=O)CCCCCNC(=O)CN1CCN(CC(=O)O)CCN(CC(=O)O)CCN(CC(=O)O)CC1)C(=O)O [copper-64 labelled],,"C57BL/6J mouse, B16-F10 tumour, tumour","intravenous, 1.85 MBq, 2 h",,tumour uptake,4.99 %ID/g
O=C(O)CCC(NP(=O)(O)OCCC[C@@H](NC(=O)CCC(NC(=O)c1ccc([18F])cc1)C(=O)O)C(=O)O)C(=O)O (some centres unmarked),radioactivity,"mouse, CWR22Rv1 xenograft",1 h,relative to: tumour over blood,tumour to blood ratio,10 and 9.88
Cc1cc(Nc2nc(C[C@@]3(C(=O)O)CCN(Cc4cccc(Cl)c4F)[C@H](C)C3)cc(C)c2F)n[nH]1,,"BALB/c nude mouse, female, NCI-H446 xenograft, tumour","oral, 10 mg/kg, 12 h",,tumour concentration,< 100 ng/g
O=C(O)CCC(NP(=O)(O)OCCC[C@@H](NC(=O)CCC(NC(=O)CCCCCNC(=O)c1ccc([18F])cc1)C(=O)O)C(=O)O)C(=O)O (some centres unmarked),radioactivity,"mouse, CWR22Rv1 xenograft",2 h,relative to: tumour over blood,tumour to blood ratio,63.6 and 64
CN[C@](C)(C[18F])C(=O)O,,SCID mouse U87 xenograft,60 min post injection,,tumour uptake,2.8 ± 1 %ID/g

# Repeated from above:
Compound,assay,system,conditions,scale,measurement,value
CN[C@](C)(C[18F])C(=O)O,,SCID mouse U87 xenograft,60 min post injection,,tumour uptake,2.8 ± 1 %ID/g
